Literature values, collected from citations in different studies.
Each line is one published result; not all experiments were run side by side. ± gives the spread as reported.

The chains behind the UniProt entries cited, without tags or fusion partners. Residues count along the entry.
UniProt P51532, 1453-1564 limits assumed: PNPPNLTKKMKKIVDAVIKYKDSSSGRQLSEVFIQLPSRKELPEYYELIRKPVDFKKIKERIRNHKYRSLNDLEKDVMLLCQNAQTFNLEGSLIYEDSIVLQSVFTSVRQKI
UniProt P33033, whole entry: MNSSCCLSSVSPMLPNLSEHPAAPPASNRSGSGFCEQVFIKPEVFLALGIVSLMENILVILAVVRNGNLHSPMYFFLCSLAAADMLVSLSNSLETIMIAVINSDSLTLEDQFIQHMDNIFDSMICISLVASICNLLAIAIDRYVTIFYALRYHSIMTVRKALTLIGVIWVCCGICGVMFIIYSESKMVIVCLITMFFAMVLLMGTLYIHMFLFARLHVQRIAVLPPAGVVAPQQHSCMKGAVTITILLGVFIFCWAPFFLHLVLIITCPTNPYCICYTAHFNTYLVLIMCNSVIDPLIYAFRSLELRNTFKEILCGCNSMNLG

| Structure (SMILES) | target or system | test | test system | setting | endpoint | result |
| --- | --- | --- | --- | --- | --- | --- |
| C/C=C/Cn1c(Cc2cc(OC)c(OC)c(OC)c2)nc2c(N)ncnc21 | Grp94 | binding, fluorescence polarization competition | – | – | IC50 | 111000 ± 9700 nM |
| Cc1ccc(F)c(C(=O)n2nc(Nc3ccc(S(N)(=O)=O)cc3)nc2N)c1F | CDK4/6 | kinase activity, inhibitor | – | – | IC50 | 2 nM |
| CCC(C)NC(=O)CSc1nnc(Nc2ccc(C(C)C)cc2)s1 (stereo not shown) | HS27 | cytotoxicity | – | – | IC50 | > 100000 nM |
| CCC[C@@H]([C@@H](CC(C)C)C(=O)N[C@@H](CCCCNC(=O)OCc1ccccc1)C(=O)Nc1nccs1)N(O)C=O | recombinant ADAM17 | enzyme activity, inhibitor | – | – | IC50 | 8 nM |
| C[C@@H]1NC(=O)[C@@H]2CSSC[C@H](NC(=O)[C@H](CC(=O)O)NC(=O)[C@H](CC(=O)O)NC(=O)CNC(=O)[C@H](CC(=O)O)NC(=O)[C@H](Cc3ccc(O)cc3)NC1=O)C(=O)N[C@@H](CCCCN)C(=O)N[C@@H](CO)C(=O)N[C@@H](C)C(=O)N1CCC[C@H]1C(=O)N1CCC[C@H]1C(=O)N[C@@H](CO)C(=O)N2 | CD2-CD58 interaction | cell adhesion, inhibitor | – | – | IC50 | 37 nM |
| CN(C)Cc1cn(Cc2ccc(C(=O)NO)cc2)c2ccccc12 | human HDAC10 | inhibitor | – | – | IC50 | 5 nM |
| Cc1cc(C)cc(Nc2nccc(-c3c(-c4ccc(F)cc4)ncn3C3CCNCC3)n2)c1 | SWI/SNF-related matrix-associated actin-dependent regulator of chromatin subfamily A member 4 (SMARCA4, Homo sapiens, UniProt P51532) | – | – | concentration not given | inhibition | > 35% |
| O=C1Cc2c([nH]c3ccc(Br)cc23)-c2ccccc2N1CC1CCCCC1 | CDK4/6 | – | – | – | IC50 | 0.6 nM |
| COc1cc(Nc2ccnc3cc(F)cc(F)c23)cc(OC)c1OC | GAK | – | – | – | IC50 | 140 nM |
| O=C(O)c1cc([C@H]2CCN[C@@H]2C(=O)O)ccc1Cl | kainate receptor (rat) | binding, radioligand binding | rat synaptosomes | with: [3H]kainate | IC50 | > 100000 nM |
| C[C@@H]1NC(=O)[C@H](CC(N)=O)NC(=O)[C@H](Cc2c[nH]c3ccccc23)NC(=O)[C@H](CCCNC(=N)N)NC(=O)[C@@H](Cc2ccccc2)NC(=O)[C@H](Cc2c[nH]cn2)NC(=O)[C@@H](NC(=O)[C@@H](N)Cc2ccc(O)cc2)CSSC[C@@H](C(=O)N[C@@H](Cc2ccc(O)cc2)C(N)=O)NC(=O)[C@H](Cc2ccccc2)NC1=O | Melanocortin receptor 3 (Mus musculus, UniProt P33033) | cAMP, agonist | – | – | EC50 | 2 nM |
| CCN1CCN(Cc2cnc(Nc3cc(-c4cc(F)c5nc(C)n(C(C)C)c5c4)ccn3)cn2)CC1 | CDK4/6 | kinase activity, inhibitor | – | – | IC50 | 11200 nM |
| N#Cc1ccc(S(=O)(=O)NC[C@H]2OC(O)[C@H](NC(=O)c3cccc(-c4ccccc4)c3)[C@@H](O)[C@@H]2O)cc1 (stereo partly shown) | hexokinase-1, human | enzyme activity, inhibitor | – | – | IC50 | 7.9 nM |

Some of these lines once more:
| Structure (SMILES) | target or system | test | test system | setting | endpoint | result |
| --- | --- | --- | --- | --- | --- | --- |
| CCN1CCN(Cc2cnc(Nc3cc(-c4cc(F)c5nc(C)n(C(C)C)c5c4)ccn3)cn2)CC1 | CDK4/6 | kinase activity, inhibitor | – | – | IC50 | 11200 nM |
| N#Cc1ccc(S(=O)(=O)NC[C@H]2OC(O)[C@H](NC(=O)c3cccc(-c4ccccc4)c3)[C@@H](O)[C@@H]2O)cc1 (stereo partly shown) | hexokinase-1, human | enzyme activity, inhibitor | – | – | IC50 | 7.9 nM |
